Assay results from different studies.
Several values in a cell are separate wells, animals, samples, runs or records. ± gives the spread as reported.
TDP1: Tyrosyl-DNA phosphodiesterase 1 (TDP1, Homo sapiens, UniProt Q9NUW8)
Sequence of UniProt Q9NUW8 (whole entry, looked up): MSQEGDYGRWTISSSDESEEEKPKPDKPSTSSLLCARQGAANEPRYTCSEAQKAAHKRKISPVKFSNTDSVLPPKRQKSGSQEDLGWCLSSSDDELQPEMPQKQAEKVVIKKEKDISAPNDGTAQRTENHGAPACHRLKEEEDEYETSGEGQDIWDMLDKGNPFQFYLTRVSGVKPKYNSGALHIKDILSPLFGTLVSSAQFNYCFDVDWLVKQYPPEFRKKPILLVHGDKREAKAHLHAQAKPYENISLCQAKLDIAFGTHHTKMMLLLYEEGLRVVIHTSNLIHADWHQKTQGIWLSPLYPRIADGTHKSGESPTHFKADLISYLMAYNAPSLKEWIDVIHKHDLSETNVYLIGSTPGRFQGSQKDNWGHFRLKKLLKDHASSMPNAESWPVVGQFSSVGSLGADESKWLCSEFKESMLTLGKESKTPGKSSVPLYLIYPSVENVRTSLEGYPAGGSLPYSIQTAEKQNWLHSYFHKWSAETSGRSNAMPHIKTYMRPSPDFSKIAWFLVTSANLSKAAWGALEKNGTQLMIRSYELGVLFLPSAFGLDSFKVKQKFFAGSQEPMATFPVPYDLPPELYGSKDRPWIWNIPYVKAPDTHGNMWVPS

COCC1CN(C2CCN(c3cc(OC)c(Nc4ncc(Br)c(Nc5ccc6c(c5P(C)(C)=O)OCCO6)n4)cc3C)CC2)C1 — patients with adverse events (EGFR-mutant NSCLC patients; oral, 240 mg once daily): 100%
Cn1ccc2ccc(C=NOCc3ccc4nc(-c5ccccc5)c(Nc5ccc(C(=O)O)cc5)n4c3)cc21 — inhibition (TDP1; enzyme activity, inhibitor; 100 µM, unpurified compound): 20.6%
CN(C)C(=O)c1cccc(N2Cc3cn(Cc4ccc(F)c(F)c4)nc3C2)c1 — half-life (metabolic stability; rat, liver microsomes): 48 min
COc1cccc(OC)c1-c1cc(C(=O)NC2(C(=O)O)C3CC4CC(C3)CC2C4)nn1-c1ccc(C(=O)N(C)CCCN(C)C(=O)[C@H](CCCCNC(=O)[C@H](CC(C)C)NC(=O)C2OC2C(=O)O)NC(=O)CN2CCN(CC(=O)[O-])CCN(CC(=O)[O-])CCN(CC(=O)[O-])CC2)cc1C(C)C.[177Lu+3] (mixture of isomers) — tumour-to-pancreas ratio (mouse HT-29 xenograft; 72 h, biodistribution; reference: tumour over pancreas): 27.4
CCCCN1C(=O)c2cccc3c(NCCCCN4CCOCC4)ccc(c23)C1=O — emission maximum (water; pH 6.0): 554 nm
COc1ccc(F)cc1C(=O)NCc1ccc(-c2nn([C@@H](C)C(F)(F)F)c(N)c2C(N)=O)cc1 — hepatic clearance (human; intravenous, 22 µg): 1.57 L/h
C=C[C@]1(C)C[C@@H](OC(=O)CSc2ccc(NC(=O)c3ccco3)cc2)[C@]2(C)[C@H](C)CC[C@]3(CCC(=O)[C@H]32)[C@@H](C)[C@@H]1O — apparent volume of distribution (M. gallisepticum-infected chickens, plasma; intramuscular, 40 mg/kg single dose): 6.97 L/kg
O=C(Nc1cnccc1-c1ccc([18F])cc1)c1ccnc(NC(=O)C2CC2)c1 — SUV (ex vivo gamma counting; FVB/NJ mice, both sexes, blood; intravenous, 120 min, mean, P-gp inhibitor pretreatment, added: tariquidar 15 mg/kg iv): 0.28
CN1CCC[C@]1(C)/C=C/S(=O)(=O)NC(=O)Nc1c2c(cc3c1CCC3)CCC2 — subjects with adverse event (refers to: alanine aminotransferase increased, probably related; human; oral, 100 mg twice daily, 14 days, multiple ascending dose): 33.3%
Cc1nc(N)nc2c1C(=O)N[C@@H](c1ccc(F)cc1-c1cccc(O[11CH3])n1)C2 — SUV (ex vivo biodistribution; healthy mice, liver; 60 min post-injection, baseline, vehicle pre-treatment): 2.3 ± 0.2
O=C(c1ccnc(N2Cc3cnn(Cc4ccc(F)cc4)c3C2)n1)N1CCOCC1 — half-life (metabolic stability; rat, liver microsomes): 43 min
CCCC[N+]1=c2cc3c4cc2[O][Mn-2]1(=[C]=O)(=[C]=O)(=[C]=O)[n+]1ccc(cc1)C(=O)Oc1ccccc1OC(=O)c1cc[n+](cc1)[Mn-2](=[C]=O)(=[C]=O)(=[C]=O)([O]3)[N+]=4CCCC — stability time without CO release (PBS with reduced myoglobin; pH 7.4, dark): ≥ 24 h
CS(=O)(=O)c1cc(Cl)cc(-c2cc(Cl)c(Cl)cc2Cl)c1Cl — dose fraction in milk fat (whole cow milk; 500 nM nominal): 86.5%
O=C(Nc1cnccc1-c1ccc([18F])nc1)c1ccnc(NC(=O)C2CC2)c1 — SUV (ex vivo gamma counting; FVB/NJ mice, both sexes, heart; intravenous, 120 min, mean, P-gp inhibitor pretreatment, added: tariquidar 15 mg/kg iv): 0.238
CCC(CC)CNC(=N)NC(=N)NCCCCCCNC(=N)NC(=N)NCC(CC)CC — hepatocyte CLint (metabolic stability; monkey, hepatocytes; 1 µM): 8.22 µL/min/10⁶ cells
C=C(NC(=O)c1csc(-c2nc3c(cc2O)-c2nc(cs2)C(=O)NC(C(C)O)C(=O)NC(=C(C)OC)c2nc(cs2)C(=O)NC2c4nc(cs4)C(=O)NC(COC(=O)c4c5c6c(cccc6n4O)COC(=O)C(OC4CC(C)(O)C(N(C)C)C(C)O4)C2OC5)c2nc-3cs2)n1)C(N)=O (stereo not shown) — AUC(0-last) (Sprague-Dawley rat, both sexes, plasma; intravenous infusion, 2 mg/kg single dose): 855 ± 150 ng·h/mL
CCCCN1C(=O)c2cccc3c(NCCCCCCCCCCN4CCOCC4)ccc(c23)C1=O — emission maximum (ethyl acetate): 512 nm
Cc1cc(NC(=O)[C@H](O)c2cc(F)cc(F)c2)ccc1-c1cnc(N)c(C(=O)NC(C)C)c1 — Tmax (female nude mouse, plasma; oral, 3 mg/kg, single dose): 60 min
[123I]c1ccc2nc(-c3ccc(-n4ccnn4)nc3)cn2c1 — tracer uptake (male Wistar rat, heart; intravenous, 4 MBq, 30 min): 0.2 %ID/g
O=C(O)CCCOc1ccc([18F])cc1-c1cc(-c2ccccc2C(F)(F)F)n(-c2ccccc2)n1 — tissue uptake (mouse, blood; intravenous, dose not given, 15 min): 0.36 ± 0.05 %ID/g
COc1cccc(OC)c1-c1cc(C(=O)NC2(C(=O)O)C3CC4CC(C3)CC2C4)nn1-c1ccc(C(=O)N(C)CCCN(C)CCCN(C)C(=O)[C@H](CCCCNC(=O)[C@H](CC(C)C)NC(=O)C2OC2C(=O)O)NC(=O)CN2CCN(CC(=O)[O-])CCN(CC(=O)[O-])CCN(CC(=O)[O-])CC2)cc1C(C)C.[177Lu+3] (mixture of isomers) — tumour-to-spleen ratio (mouse HT-29 xenograft; 72 h, biodistribution; reference: tumour over spleen): 8.43
Cc1ccc(CN2C(=O)/C(=N\c3ccc(Cl)cc3Br)c3ccccc32)cc1 — RDW (mouse, blood; 100 mg/kg): 15.8 ± 0.25%
OC1(C(F)(F)F)CCN(c2nc(Nc3ccnc(C(F)(F)F)c3)nc(-c3cccc(C(F)(F)F)n3)n2)C1 (stereo not shown) — AUC(0-inf) (monkey; oral, 3 mg/kg): 29900 ± 3160 ng·h/mL
CCCCN1C(=O)c2cccc3c(NCCCCCCCCN4CCOCC4)ccc(c23)C1=O — fluorescence lifetime (toluene): 8.6 ns
O=C(c1ccccc1)N1C(c2ccc(OCC3CCN(CCCF)C3)cc2)c2ccc(O)cc2CC12CC2 (stereo not shown) — Cmax (C57BL/6J mouse, plasma; oral, 25 mg/kg, group mean): 752 ng/mL
Cc1[nH]c(=O)c(CNC(=O)c2cc(Cl)c3c(c2C)O[C@@](C)([C@H]2CC[C@H](N(C)C)CC2)O3)c(C)c1O — fecal excretion (radiochromatography; human, feces; oral, 200 mg; reference: dose): 7.6% and 4.5% and 5.7% and 5.3%
CC(C)C[C@H](NC(=O)[C@@H](CCCCNC(=O)[C@@H](Cc1ccccc1)NC(=O)CCCCCCCNC(=O)CN1CCN(CC(=O)O)CCN(CC(=O)O)CCN(CC(=O)O)CC1)NC(=O)[C@H](Cc1ccc(O)cc1)NC(=O)[C@H](CO)NC(=O)[C@H](Cc1c[nH]c2ccccc12)NC(=O)[C@H](Cc1c[nH]cn1)NC(=O)[C@@H]1CCC(=O)N1)C(=O)N[C@@H](CCCNC(=N)N)C(=O)N1CCC[C@H]1C(=O)NCC(N)=O [indium-111 labelled] — excreted dose (male athymic nude mice, DU-145 prostate cancer xenograft, urine; intravenous, 0.037 MBq, 2 h): 82.2 ± 7.84%
O=c1cc(/C=C/c2ccc(N3CCCC3)cc2)oc(/C=C/c2ccc(N3CCCC3)cc2)c1 — emission maximum (acetonitrile; 10 µM, 298 K): 559 nm
C=CC(=O)Nc1cc(Nc2nccc(-c3c[nH]c4ccccc34)n2)c(OC)cc1N(C)CCN(C)C — recovery (storage stability; human dried blood spots; 24 h, on ice, high QC level): 76.6%
CC(C)(O)c1ncc([S@](N)(=O)=NC(=O)Nc2c3c(cc4c2CCC4)CCC3)s1 — subjects with TEAEs (refers to: any system organ class; healthy human volunteers; oral, 600 mg single dose, spray-dried dispersion suspension): 100%
CC[C@H](C)[C@@H]1NC(=O)[C@H](Cc2ccc(O)cc2)NC(=O)CCCSC[C@@H](C(=O)N(CC(=O)N[C@@H](CC(C)C)C(=O)NCC(N)=O)Cc2ccc(F)cc2)NC(=O)[C@H](CC(N)=O)NC(=O)[C@H](CCC(N)=O)NC1=O — adverse drug reactions (human; intranasal, 50 µg repeated doses): 50%
COc1cccc(OC)c1-c1cc(C(=O)NC2(C(=O)O)C3CC4CC(C3)CC2C4)nn1-c1ccc(C(=O)N(C)CCOCCOCCN(C)C(=O)[C@H](CCCCNC(=O)[C@H](CC(C)C)NC(=O)C2OC2C(=O)O)NC(=O)CN2CCN(CC(=O)[O-])CCN(CC(=O)[O-])CCN(CC(=O)[O-])CC2)cc1C(C)C.[177Lu+3] (mixture of isomers) — tumour-to-pancreas ratio (mouse HT-29 xenograft; 72 h, biodistribution; reference: tumour over pancreas): 21.1
Cc1noc(C)c1Cn1cc(N2C(=O)CN(Cc3cccc(O[C@@H]4O[C@H](C(=O)O)[C@@H](O)[C@H](O)[C@H]4O)c3)C2=O)cn1 — plasma concentration (Sprague-Dawley rat, male; oral, 100 mg/kg of parent drug, 8 h): 478 ng/mL
C=CC(=O)Nc1cc(Nc2nccc(-c3cn(C)c4ccccc34)n2)c(OC)cc1N(C)CCNC — recovery (storage stability; human dried blood spot; 2 h, on ice, MQC level): 95.8%
C/C(N)=N/C(=N\S(=O)(=O)c1ccc(C(F)(F)F)cc1)N1C[C@H](c2ccccc2)C(c2ccc(Cl)cc2)=N1 — Cmax (beagle dog, plasma; oral, 24 mg/kg): 1780 ng/mL
CCCC[C@H](NC(=O)CNC(=O)CNC(=O)[C@H](CCCCNC(=O)[C@H](CC(=O)O)NC(=O)C(C)c1ccc(CC(C)C)cc1)NC(=O)CN1CCN(CC(=O)O)CCN(CC(=O)O)CCN(CC(=O)O)CC1)C(=O)N[C@H]1CC(=O)NCCCC[C@@H](C(N)=O)NC(=O)[C@H](Cc2c[nH]c3ccccc23)NC(=O)[C@H](CCCNC(=N)N)NC(=O)[C@@H](Cc2ccccc2)NC(=O)[C@H](Cc2c[nH]cn2)NC1=O (stereo partly shown) [lutetium-177 labelled] — tumour-to-tissue ratio (C57 mice, tumour; 2 h; reference: blood): 27.7
CCCCN1C(=O)c2cccc3c(NCCCCCN4CCOCC4)ccc(c23)C1=O — emission maximum (toluene): 498 nm
CN(O)C(=O)CCC(=O)NCCCN(CCCCN(CCCNC(=O)CCC(=O)N(C)O)C(=O)CCC(=O)N(C)O)C(=O)CCC(=O)N(C)O.[89Zr] — intact complex (radio-TLC; aqueous buffer; 3 d, pH 7, 37 °C, 89Zr-labelled complex, added: DTPA 100-fold excess): 98.4 ± 1.4%
COc1ccc(Nc2nc(Nc3ccc(OCCOCCOCC[18F])cc3)ncc2Br)cc1 — tissue uptake (ICR mice, S180 tumour-bearing, bone; intravenous, 370 kBq, 30 min): 3.07 ± 0.1 %ID/g
COc1cccc(OC)c1-c1cc(C(=O)NC2(C(=O)O)C3CC4CC(C3)CC2C4)nn1-c1ccc(C(=O)NCCNC(=O)[C@H](CCCCNC(=O)[C@H](CC(C)C)NC(=O)C2OC2C(=O)O)NC(=O)CN2CCN(CC(=O)[O-])CCN(CC(=O)[O-])CCN(CC(=O)[O-])CC2)cc1C(C)C.[177Lu+3] (mixture of isomers) — tissue uptake (mouse HT-29 xenograft, small intestine; 24 h post injection, biodistribution): 0.42 %ID/g
O=C(O)c1ccc(Nc2c(-c3ccc(CON=Cc4cc(Br)c5c(c4)CCO5)cc3)nc3cc(-c4ccccc4)ccn23)cc1 — inhibition (TDP1; enzyme activity, inhibitor; 100 µM, unpurified compound): 66.7%
CCCCN1C(=O)c2cccc3c(NCCN4CCOCC4)ccc(c23)C1=O — fluorescence quantum yield (1,4-dioxane): 0.1
CN(C)C(=O)c1cccc(N2Cc3cn(Cc4ccc(C#N)cc4)nc3C2)c1 — half-life (metabolic stability; rat, liver microsomes): 116 min

For quick reference, copied from above:
CCCCN1C(=O)c2cccc3c(NCCCCCCCCN4CCOCC4)ccc(c23)C1=O — fluorescence lifetime (toluene): 8.6 ns
O=C(c1ccccc1)N1C(c2ccc(OCC3CCN(CCCF)C3)cc2)c2ccc(O)cc2CC12CC2 (stereo not shown) — Cmax (C57BL/6J mouse, plasma; oral, 25 mg/kg, group mean): 752 ng/mL
Cc1[nH]c(=O)c(CNC(=O)c2cc(Cl)c3c(c2C)O[C@@](C)([C@H]2CC[C@H](N(C)C)CC2)O3)c(C)c1O — fecal excretion (radiochromatography; human, feces; oral, 200 mg; reference: dose): 7.6% and 4.5% and 5.7% and 5.3%
